Results collected from several papers.
“And” joins repeats or separate records; there may be more than shown.
FYN: Tyrosine-protein kinase Fyn (FYN, Homo sapiens, UniProt P06241)
Sequence of UniProt P06241 (whole entry, looked up): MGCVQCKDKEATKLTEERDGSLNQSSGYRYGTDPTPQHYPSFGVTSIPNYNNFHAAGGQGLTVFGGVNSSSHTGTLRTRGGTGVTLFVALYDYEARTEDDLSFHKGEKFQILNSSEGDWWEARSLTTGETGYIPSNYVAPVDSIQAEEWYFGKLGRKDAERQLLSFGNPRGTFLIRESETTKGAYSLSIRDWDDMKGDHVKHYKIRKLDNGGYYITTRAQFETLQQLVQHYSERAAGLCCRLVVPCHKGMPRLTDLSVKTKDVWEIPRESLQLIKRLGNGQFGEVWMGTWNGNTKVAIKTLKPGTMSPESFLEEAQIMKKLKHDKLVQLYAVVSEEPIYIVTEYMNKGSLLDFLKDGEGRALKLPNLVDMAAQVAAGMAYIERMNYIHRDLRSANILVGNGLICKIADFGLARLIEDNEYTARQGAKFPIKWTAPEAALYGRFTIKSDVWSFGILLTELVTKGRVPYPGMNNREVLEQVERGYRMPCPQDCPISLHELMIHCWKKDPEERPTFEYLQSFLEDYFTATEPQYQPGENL

NC(=O)C[C@H]1CCc2sc3ncnc(O[C@H]4CC[C@H](N5CCOCC5)CC4)c3c21
inhibition (FYN; enzyme activity, inhibitor; 10 µM): 16%

CCn1cc(C(=O)O)c(=O)c2c(N)c(F)c(NC3CCCCC3)cc21
inhibition (Tyrosine-protein kinase Fyn, isoform b (FYN, Homo sapiens, UniProt P06241); kinase activity; 0.1 µM, with: ATP at Km): 1.3%

C=CC(=O)Nc1cccc(-c2cnc3[nH]cc(C(=O)NC(C)(C)C)c3n2)c1
inhibition (FYN; enzyme activity, inhibitor; 0.1 µM): 26%

CC(C)=CC1OC(C)(C)C2C=C3C(=O)C(Cl)=CC(O)C3C3C(O)C4OC4C(=O)C132 (stereo not shown)
remaining binding (FYN; cell-free assay, competition with immobilised ligand; 10 µM): 100%

COCC12C(=O)NC3C4(C(OC)CC1O)C1CC5(O)C(OC)C(O)C(OC(C)=O)(C1C5OC(=O)c1ccccc1)C3(O)C(OC)C24 (stereo not shown)
remaining activity (FYN; kinase activity, inhibitor, ProQinase kinase profiling; 25 µM; baseline: control): 85% and 88%

Nc1ncc2c(n1)-c1c([nH]c3ccc(C4=CCOCC4)cc13)CCC2
remaining binding (FYN; binding, competition with immobilised ligand; 1 µM): 100%

O=C(Cc1ccc(OCc2ccccc2)cc1)NC1(C(=O)O)CCN(C(=O)c2ccc(-c3cccc(Cl)c3)cc2)CC1
activity vs control (FYN; enzyme activity, inhibitor; 10 µM): 141%

C=CC(=O)N1CCc2ccc(-n3c(=O)ccc4cnc5ccc(-c6cnn(C)c6)cc5c43)cc21
remaining binding (FYN; KINOMEscan; 1 µM; baseline: DMSO control): 99%

CCN1CCN(Cc2ccc(C(=O)Nc3ccc(C)c(NCc4cnc5[nH]ccc5c4OC)c3)cc2C(F)(F)F)CC1
remaining binding (FYN; binding, competition with immobilised ligand; 1 µM): 6%

COc1ccc(C(=O)/C=C/c2ccccc2-c2c[nH]c3ccc(C#N)cc23)c(O)c1
inhibition (FYN; enzyme activity, inhibitor; 20 µM): -34%

COc1cc(Nc2nccc(-c3cnn4nc(OC)ccc34)n2)cc(C(F)(F)F)c1
remaining binding (FYN; binding, competition with immobilised ligand; 1 µM): 99%

Cc1cccc(O[C@H]2CCC[C@@H](C(C)CNCc3ccncc3)C2)c1 (relative stereo)
inhibition (FYN; enzyme activity, inhibitor; 1 µM): 3%

CNC1C[S+]2CC[S+]3CC[S+](C1)[Ru-4]321([N]=C=S)[n]2c3ccc(OC)cc3c3c4c(c5cc(F)c[n+]1c5c32)C(=O)NC4=O (stereo not shown)
remaining binding (FYN; KinomeScan; 0.1 µM; baseline: untreated): 100%

O=C(O)CCC(=O)c1cccc(NS(=O)(=O)c2c[nH]c3ncccc23)c1
remaining activity (FYN; kinase activity, radiometric; 10 µM): 84%

C[C@H]1CN(C(=O)c2cn(-c3ccnc(N)n3)c3cc(C#CC4(O)CCCCC4)ccc23)CCN1
inhibition (FYN; enzyme activity, inhibitor, FRET; 1 µM): -1%

C=CC(=O)N1CCCC(n2c(=O)c3ncccc3n(Cc3ccc(Oc4ccccc4)cc3)c2=O)C1 (stereo not shown)
remaining binding (FYN; cell-free assay, competition with immobilised ligand; 1 µM): 90%

Excerpt of the above:
O=C(Cc1ccc(OCc2ccccc2)cc1)NC1(C(=O)O)CCN(C(=O)c2ccc(-c3cccc(Cl)c3)cc2)CC1
activity vs control (FYN; enzyme activity, inhibitor; 10 µM): 141%

C=CC(=O)N1CCc2ccc(-n3c(=O)ccc4cnc5ccc(-c6cnn(C)c6)cc5c43)cc21
remaining binding (FYN; KINOMEscan; 1 µM; baseline: DMSO control): 99%
